# Assay results of several laboratories.
# Compare with care: the assays were run in different laboratories.
Structure (SMILES),cell line,assay,setting,inhibition
C=C(C(=O)O)[C@@H]1CC[C@@]2(C)CCC(=O)C(C)=C2C1,human Neutrophil,"superoxide release, inhibitor, absorbance",10 µM,18.5%
CC1=CCC23OC2(C)CCC2C(C[N+](C)(C)C)C(=O)OC2C13.[I-] (stereo not shown),OVCAR-3,"cell growth or viability, SRB",8.3 µM,54.3%
CC(C)[C@@H]1CC[C@@H](C)C[C@H]1OC(=O)COC(=O)Cn1cnc2c1c(=O)n(C)c(=O)n2C,RAW264.7,"NO release, inhibitor, Griess","25 µM, LPS-stimulated",79.3%
CC[C@H](C)[C@H](NC(=O)[C@H](CC(C)C)NC(=O)[C@@H](NC(=O)[C@@H](NC(=O)[C@H](CCSC)NC(C)=O)[C@@H](C)CC)[C@@H](C)CC)C(=O)N[C@H](C(=O)N[C@@H](CO)C(=O)N[C@@H](Cc1ccccc1)C(=O)N1CCC[C@H]1C(=O)N[C@@H](CCCCN)C(=O)N[C@@H](Cc1c[nH]cn1)C(=O)N[C@@H](CCCCN)C(=O)N[C@@H](CC(=O)O)C(=O)N[C@@H](Cc1c[nH]c2ccccc12)C(=O)N[C@@H](CCCCN)C(=O)N[C@H](C(=O)N[C@H](C(=O)N[C@@H](CC(C)C)C(=O)N[C@H](C(=O)N[C@@H](CCCCN)C(N)=O)C(C)C)[C@@H](C)CC)C(C)C)[C@@H](C)CC,human cells,total IgG production,concentration not given,≥ 50%
COc1cc(-c2oc3cc(OC)c(OC)c(O)c3c(=O)c2OC)ccc1O,human Neutrophil,"superoxide release, inhibitor, absorbance",10 µM,92%
CC12OOC(C)(OO1)C2CCC(=O)NCCCNc1ccnc2cc(Cl)ccc12 (stereo not shown),K562,"cell growth or viability, resazurin","10 µM, 48 h",83%
C=C(C(=O)OC)[C@@H]1CC[C@@]2(C)CCC(=O)C(C)=C2C1,human Neutrophil,"superoxide release, inhibitor, absorbance",10 µM,18.3%
C=CCc1ccc(OC(=O)Cn2cnc3c2c(=O)n(C)c(=O)n3C)c(OC)c1,RAW264.7,"NO release, inhibitor, Griess","25 µM, LPS-stimulated",86.8%
CC12CCC3(CCC(=O)NCCNc4ccnc5cc(Cl)ccc45)C(C)(OOC3(C)O1)O2,K562,"cell growth or viability, resazurin","10 µM, 48 h",7.5%
CC1CCC(C(C)C)C(OC(=O)Cn2cc(COC(=O)Cn3cnc4c3c(=O)n(C)c(=O)n4C)nn2)C1 (stereo not shown),RAW264.7,"NO release, inhibitor, Griess","25 µM, LPS-stimulated",61.1%
CC12CCC3(CCC(=O)OCCNc4ccnc5cc(Cl)ccc45)C(C)(OOC3(C)O1)O2,K562,"cell growth or viability, resazurin","10 µM, 48 h",6.5%
COc1ccc(CCN2CCC[C@H](CN3CCc4cc(OC)c(OC)cc4CC3=O)C2)cc1OC,mouse VTA dopamine neurons,"firing rate, cell-attached recording","750 µM, 3 min",61.8%
CC1=C2[C@@H](O)[C@H](C(=O)O)CC[C@@]2(C)CCC1=O,human Neutrophil,"elastase release, inhibitor",10 µM,2.74%
CC12OOC(C)(OO1)C2CCC(=O)NCCNc1ccnc2cc(Cl)ccc12 (stereo not shown),K562,"cell growth or viability, resazurin","10 µM, 48 h",37.3%
COc1cc(-c2oc3cc(O)c(OC)c(O)c3c(=O)c2OC)ccc1O,human Neutrophil,"superoxide release, inhibitor, absorbance",10 µM,80.3%
C=CCc1ccc(OC(=O)COC(=O)Cn2cnc3c2c(=O)n(C)c(=O)n3C)c(OC)c1,RAW264.7,"NO release, inhibitor, Griess","25 µM, LPS-stimulated",88%
CC12OOC(C)(OO1)C2CCC(=O)OCCNc1ccnc2cc(Cl)ccc12 (stereo not shown),K562,"cell growth or viability, resazurin","10 µM, 48 h",82.6%
C=C(C(=O)O)[C@@H]1CC[C@@]2(C)CCC(=O)C(C)=C2[C@H]1O,human Neutrophil,"superoxide release, inhibitor, absorbance",10 µM,6.23%
OC[C@H]1[C@@H](O)[C@@H](O)CN1Cc1ccc(Br)cc1,K562,"cell growth, MTS",concentration not given,no inhibition

# A few entries again:
Structure (SMILES),cell line,assay,setting,inhibition
CC12CCC3(CCC(=O)OCCNc4ccnc5cc(Cl)ccc45)C(C)(OOC3(C)O1)O2,K562,"cell growth or viability, resazurin","10 µM, 48 h",6.5%
